Measurements gathered from unrelated publications.
Protocols differ between the studies behind these lines. “And” joins repeats or separate records; there may be more than shown. ± gives the spread as reported.

Molecule	target or system	test	test system	conditions	scale	quantity	value
colistin	Klebsiella pneumoniae	broth microdilution	clinical isolate RKI-No_94/15	–	–	MIC	≤ 0.5 mg/L
somatropin	–	–	children with severe GH deficiency, short stature	dose not given, GHR mutation patients	–	height gain in first year of therapy	6 cm
insulin aspart	–	euglycaemic glucose clamp	human, adults with type 1 diabetes, up to 35 years	subcutaneous, 0.2 U/kg	–	time to early 50% GIRmax	41.3 min
GGWVEKETYY	human MAGI1-2/6 PDZ construct (MBP fusion)	surface plasmon resonance	peptide	concentration not given	higher = stronger binding	normalised SPR binding response	0 normalised RU
CCT6A	–	co-immunoprecipitation	human RBC membrane	DSSO crosslinker, unit not given, added: Band 3 peptide 1-56 bait	relative to: negative control	co-IP enrichment	235
Peginesatide	UT7/EPO	RT-qPCR, measured: IER3	–	concentration not given, 90 min, normalized to HPRT1	relative to: vehicle	mRNA level	4.4 fold
maraviroc	–	ELISA	HIV-infected mice, plasma	i.p., 120 mg/kg twice daily, 3 weeks post infection	–	Aβ40 level	205 ± 54.2 pg/mL
GSGAGRETEV	human SCRIB PDZ3-4 tandem (MBP fusion)	automated holdup	peptide, crude extract	concentration not given, uncorrected, unit not given	relative to: biotin control resin, higher = stronger binding	binding intensity	0.977
human serum albumin	–	co-immunoprecipitation	human RBC cytosol	DMTMM crosslinker, unit not given, added: Band 3 peptide 1-56 bait	relative to: negative control	co-IP enrichment	64.8
semaglutide	–	–	DIO male Wistar rats	dose not given, 2 weeks	–	fasting blood glucose	96 ± 3 mg/dL
human alpha-1-acid glycoprotein 1	–	co-immunoprecipitation	human RBC membrane	DMTMM crosslinker, unit not given, added: Band 3 peptide 1-56 bait	relative to: negative control	co-IP enrichment	0
cotadutide	–	–	ob/ob mouse, AMLN diet NASH model	dose not given, terminal	–	plasma AST	841 ± 105 U/L
difelikefalin	–	–	Japanese haemodialysis patients with pruritus	intravenous, 0.5 µg/kg, 8 weeks	–	PGIC no change	10.2%
CCT3	–	co-immunoprecipitation	human RBC cytosol	unit not given, added: Band 3 peptide 1-56 bait	relative to: negative control	co-IP enrichment	0
heparin sodium	–	–	healthy Chinese adult volunteers, plasma	continuous intravenous infusion, 8 IU/kg/h, day 1 to 6 of 5-day infusion, median with range	–	time to maximum prothrombin time	1.99 h
calcium	–	ion current, two-electrode voltage clamp	Xenopus oocytes	1.8 mM, 80 mV, added: niflumic acid present	–	desensitization time constant	17.6 s and 10.9 s and 36.8 s and 19.4 s
